# Results of several laboratories.
# Numbered parts are unrelated; each lists some results of a single study.
# Sequence of UniProt Q13237 (whole entry, looked up): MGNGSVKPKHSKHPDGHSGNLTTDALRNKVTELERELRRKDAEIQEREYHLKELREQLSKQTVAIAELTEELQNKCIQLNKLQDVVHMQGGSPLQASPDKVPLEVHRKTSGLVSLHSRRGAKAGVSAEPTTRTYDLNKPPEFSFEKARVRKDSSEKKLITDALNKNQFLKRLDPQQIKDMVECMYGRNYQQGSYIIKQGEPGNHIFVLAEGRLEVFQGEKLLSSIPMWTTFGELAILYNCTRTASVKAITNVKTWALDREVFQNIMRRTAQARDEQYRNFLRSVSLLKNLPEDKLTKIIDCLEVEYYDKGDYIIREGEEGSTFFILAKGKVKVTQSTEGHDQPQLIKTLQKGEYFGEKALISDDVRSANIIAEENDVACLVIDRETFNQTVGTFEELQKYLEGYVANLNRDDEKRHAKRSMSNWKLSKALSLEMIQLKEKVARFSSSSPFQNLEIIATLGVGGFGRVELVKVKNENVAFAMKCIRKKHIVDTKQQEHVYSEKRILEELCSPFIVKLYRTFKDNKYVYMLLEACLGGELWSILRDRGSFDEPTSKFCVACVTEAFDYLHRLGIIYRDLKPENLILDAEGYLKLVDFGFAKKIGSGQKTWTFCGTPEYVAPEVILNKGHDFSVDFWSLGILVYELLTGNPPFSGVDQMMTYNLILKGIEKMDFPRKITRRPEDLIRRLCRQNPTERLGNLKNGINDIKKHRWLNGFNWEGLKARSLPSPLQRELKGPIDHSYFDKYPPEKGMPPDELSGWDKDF
# Sequence of UniProt P08581 (whole entry, looked up): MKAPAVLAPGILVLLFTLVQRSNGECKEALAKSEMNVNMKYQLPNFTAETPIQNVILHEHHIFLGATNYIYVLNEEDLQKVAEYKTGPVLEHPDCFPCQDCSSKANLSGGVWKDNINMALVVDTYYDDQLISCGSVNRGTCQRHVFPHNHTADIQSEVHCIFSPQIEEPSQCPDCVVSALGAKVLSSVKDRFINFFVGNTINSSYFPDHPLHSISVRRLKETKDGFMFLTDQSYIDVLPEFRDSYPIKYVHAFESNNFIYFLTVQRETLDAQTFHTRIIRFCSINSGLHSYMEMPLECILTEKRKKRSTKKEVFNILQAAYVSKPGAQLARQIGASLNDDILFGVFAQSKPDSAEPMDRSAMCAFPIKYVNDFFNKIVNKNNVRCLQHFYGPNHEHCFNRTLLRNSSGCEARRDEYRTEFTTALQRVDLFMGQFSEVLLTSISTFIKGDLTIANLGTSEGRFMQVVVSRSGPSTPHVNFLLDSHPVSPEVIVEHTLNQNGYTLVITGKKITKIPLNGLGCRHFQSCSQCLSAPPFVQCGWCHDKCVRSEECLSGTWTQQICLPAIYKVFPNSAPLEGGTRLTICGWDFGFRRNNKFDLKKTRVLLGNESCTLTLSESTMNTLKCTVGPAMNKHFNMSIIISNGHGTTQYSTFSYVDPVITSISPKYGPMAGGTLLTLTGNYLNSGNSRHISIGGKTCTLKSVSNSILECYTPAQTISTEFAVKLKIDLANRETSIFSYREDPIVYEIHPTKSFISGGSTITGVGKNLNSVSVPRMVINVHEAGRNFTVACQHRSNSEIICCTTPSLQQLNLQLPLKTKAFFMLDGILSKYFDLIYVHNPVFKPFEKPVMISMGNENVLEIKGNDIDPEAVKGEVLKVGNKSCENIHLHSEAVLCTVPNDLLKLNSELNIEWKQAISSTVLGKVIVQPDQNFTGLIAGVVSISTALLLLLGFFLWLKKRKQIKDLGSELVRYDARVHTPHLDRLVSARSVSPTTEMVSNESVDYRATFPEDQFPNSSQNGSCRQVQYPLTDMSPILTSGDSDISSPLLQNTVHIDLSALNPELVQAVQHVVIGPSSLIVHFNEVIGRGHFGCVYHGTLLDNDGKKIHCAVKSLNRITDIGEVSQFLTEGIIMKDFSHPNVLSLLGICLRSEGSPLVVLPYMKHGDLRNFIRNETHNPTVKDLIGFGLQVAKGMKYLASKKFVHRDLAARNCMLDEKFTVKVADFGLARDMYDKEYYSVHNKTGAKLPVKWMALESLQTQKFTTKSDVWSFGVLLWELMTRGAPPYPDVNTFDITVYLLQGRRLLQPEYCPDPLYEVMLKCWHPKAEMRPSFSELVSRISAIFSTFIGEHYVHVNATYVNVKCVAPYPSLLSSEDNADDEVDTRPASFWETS
# Sequence of UniProt Q16832 (whole entry, looked up): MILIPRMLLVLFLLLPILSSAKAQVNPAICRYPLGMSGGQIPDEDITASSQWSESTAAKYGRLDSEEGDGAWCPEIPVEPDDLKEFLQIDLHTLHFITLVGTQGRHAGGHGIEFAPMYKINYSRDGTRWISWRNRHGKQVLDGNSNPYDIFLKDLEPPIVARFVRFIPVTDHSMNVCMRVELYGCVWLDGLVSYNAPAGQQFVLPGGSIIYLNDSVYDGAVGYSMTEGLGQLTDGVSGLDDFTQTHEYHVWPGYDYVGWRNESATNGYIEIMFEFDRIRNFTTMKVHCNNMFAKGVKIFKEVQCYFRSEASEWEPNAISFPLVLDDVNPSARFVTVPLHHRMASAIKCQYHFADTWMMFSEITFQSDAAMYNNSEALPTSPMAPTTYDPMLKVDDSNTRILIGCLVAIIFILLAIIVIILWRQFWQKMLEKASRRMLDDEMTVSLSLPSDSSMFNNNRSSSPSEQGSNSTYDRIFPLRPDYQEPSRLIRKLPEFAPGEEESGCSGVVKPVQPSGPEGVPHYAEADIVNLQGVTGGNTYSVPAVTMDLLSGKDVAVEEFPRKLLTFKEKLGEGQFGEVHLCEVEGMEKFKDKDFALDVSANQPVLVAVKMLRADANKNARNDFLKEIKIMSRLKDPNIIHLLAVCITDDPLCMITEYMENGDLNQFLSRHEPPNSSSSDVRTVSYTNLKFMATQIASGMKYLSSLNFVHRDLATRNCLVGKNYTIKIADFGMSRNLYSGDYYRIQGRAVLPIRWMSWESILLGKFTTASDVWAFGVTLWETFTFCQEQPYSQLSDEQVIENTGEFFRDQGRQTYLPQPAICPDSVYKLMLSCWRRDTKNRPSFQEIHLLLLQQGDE
# Sequence of UniProt P51956 (whole entry, looked up): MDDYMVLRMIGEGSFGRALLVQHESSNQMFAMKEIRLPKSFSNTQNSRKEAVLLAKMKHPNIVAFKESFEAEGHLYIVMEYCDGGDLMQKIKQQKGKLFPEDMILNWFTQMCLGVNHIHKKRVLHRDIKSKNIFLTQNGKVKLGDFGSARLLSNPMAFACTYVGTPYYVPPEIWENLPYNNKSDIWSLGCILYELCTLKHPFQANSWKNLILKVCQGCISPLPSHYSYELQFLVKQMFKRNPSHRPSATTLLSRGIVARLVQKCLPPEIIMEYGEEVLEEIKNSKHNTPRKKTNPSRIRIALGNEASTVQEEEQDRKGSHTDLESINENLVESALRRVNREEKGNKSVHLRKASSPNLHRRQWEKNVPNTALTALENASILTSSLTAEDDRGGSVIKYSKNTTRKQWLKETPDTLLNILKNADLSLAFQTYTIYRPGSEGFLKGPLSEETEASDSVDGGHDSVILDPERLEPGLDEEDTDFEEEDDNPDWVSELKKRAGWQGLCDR
# Sequence of UniProt Q86UE8 (whole entry, looked up): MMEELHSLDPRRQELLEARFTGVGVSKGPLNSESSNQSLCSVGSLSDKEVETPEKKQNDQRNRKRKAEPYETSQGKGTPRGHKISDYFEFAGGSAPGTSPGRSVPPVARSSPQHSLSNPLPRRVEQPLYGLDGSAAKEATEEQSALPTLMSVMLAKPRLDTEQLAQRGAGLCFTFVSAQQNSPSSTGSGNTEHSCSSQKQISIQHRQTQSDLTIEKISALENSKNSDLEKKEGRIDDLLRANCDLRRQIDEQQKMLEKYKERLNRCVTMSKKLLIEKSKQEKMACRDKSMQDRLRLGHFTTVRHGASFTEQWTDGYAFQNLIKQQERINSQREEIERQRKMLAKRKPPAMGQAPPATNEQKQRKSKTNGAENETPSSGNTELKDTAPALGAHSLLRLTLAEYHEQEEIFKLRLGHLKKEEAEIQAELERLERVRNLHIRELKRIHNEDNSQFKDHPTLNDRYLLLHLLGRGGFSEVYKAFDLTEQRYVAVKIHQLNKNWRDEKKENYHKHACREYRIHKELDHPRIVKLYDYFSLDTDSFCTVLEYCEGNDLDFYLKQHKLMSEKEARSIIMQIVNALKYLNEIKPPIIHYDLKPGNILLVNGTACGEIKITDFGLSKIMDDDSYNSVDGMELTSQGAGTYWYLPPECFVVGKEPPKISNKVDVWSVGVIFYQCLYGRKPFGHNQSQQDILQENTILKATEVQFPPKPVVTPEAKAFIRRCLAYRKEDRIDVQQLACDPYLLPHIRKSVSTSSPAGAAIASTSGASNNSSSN
# Sequence of UniProt P31751 (whole entry, looked up): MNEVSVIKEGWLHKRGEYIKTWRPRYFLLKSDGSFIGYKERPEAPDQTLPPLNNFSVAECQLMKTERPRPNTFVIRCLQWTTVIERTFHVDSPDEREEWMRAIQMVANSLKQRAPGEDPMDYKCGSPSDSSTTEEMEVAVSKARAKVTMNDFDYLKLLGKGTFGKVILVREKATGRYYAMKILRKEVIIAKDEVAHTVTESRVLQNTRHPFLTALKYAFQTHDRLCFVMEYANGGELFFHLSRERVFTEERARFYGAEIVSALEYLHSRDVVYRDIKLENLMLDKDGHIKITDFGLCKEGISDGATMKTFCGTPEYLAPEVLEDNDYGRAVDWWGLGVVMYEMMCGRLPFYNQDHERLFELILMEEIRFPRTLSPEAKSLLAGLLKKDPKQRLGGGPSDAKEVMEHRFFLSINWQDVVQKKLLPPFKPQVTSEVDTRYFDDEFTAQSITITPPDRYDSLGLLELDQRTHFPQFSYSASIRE

# Study 1
# SMILES: CCS(=O)(=O)c1cc2cc(C[C@](O)(CC(C)(C)c3ccc(F)cc3C(N)=O)C(F)(F)F)[nH]c2cn1
# Effect on: cell-free assay
# Technique: competition with immobilised ligand
# Tested at: 1 µM
target,remaining binding
"TAOK2 (Homo sapiens, UniProt Q9UL54)",85%
"STK36 (Homo sapiens, UniProt Q9NRP7)",100%
"WNK1 (Homo sapiens, UniProt Q9H4A3)",97%
"PIK3CA (Homo sapiens, UniProt P42336, E545K)",80%
"CSNK1E (Homo sapiens, UniProt P49674)",95%

# Study 2
# Structure (SMILES): C[C@@H]1CCN(C(=O)CC#N)C[C@@H]1N(C)c1ncnc2[nH]ccc12
# Effect on: enzyme activity
# Mode: inhibitor
# Tested at: 0.5 µM
# Reference: control
target,remaining activity [%]
"NEK3 (Homo sapiens, UniProt P51956)",94.5
"RPS6KA4 (Homo sapiens, UniProt O75676)",105
"PAK3 (Homo sapiens, UniProt O75914)",105
"MAPK1 (Homo sapiens, UniProt P28482)",88.6
"MAP2K1 (Homo sapiens, UniProt Q02750)",112
"AKT2 (Homo sapiens, UniProt P31751)",98
"DDR2 (Homo sapiens, UniProt Q16832)",104
"MINK1 (Homo sapiens, UniProt Q8N4C8)",100
"MET (Homo sapiens, UniProt P08581)",86.7
"PRKG2 (Homo sapiens, UniProt Q13237)",106
"CLK4 (Homo sapiens, UniProt Q9HAZ1)",111
"TXK (Homo sapiens, UniProt P42681)",98.4
"TLK2 (Homo sapiens, UniProt Q86UE8)",94.4

# Study 3
# Cell line: HaCaT
# Tested at: 100 µM
# Time: 18 h
Structure (SMILES),viability
CCOC(=O)C1=C[C@]2(CC)CCCN3CCc4c(n1c1ccccc41)[C@@H]32,45.3%
CCN1CCN(Cc2ccc(Nc3ncc(F)c(-c4cc(F)c5nc(C)n(C(C)C)c5c4)n3)nc2)CC1,108%
NNC(=O)c1ccncc1,110%
C[C@H](CCC(=O)NCCS(=O)(=O)O)[C@H]1CC[C@H]2[C@@H]3[C@@H](O)C[C@@H]4C[C@H](O)CC[C@]4(C)[C@H]3CC[C@]12C,112%
CC[C@H]1OC(=O)[C@@](C)(F)C(=O)[C@H](C)[C@@H](O[C@@H]2O[C@H](C)C[C@H](N(C)C)[C@H]2O)[C@](C)(OC)C[C@@H](C)C(=O)[C@H](C)[C@H]2N(CCCCn3cc(-c4cccc(N)c4)nn3)C(=O)O[C@]12C,26.4%

# Study 4
# Organism: Plasmodium berghei
# Mode: inhibitor
# Cells: Huh-7
# Strain: liver stage
# Tested at: 10 µM
# Time: 24 h
# Reference: untreated control
SMILES,infection rate [%]
COC1=CC(=O)C[C@@H](C)[C@]12Oc1c(Cl)c(OC)cc(OC)c1C2=O,137
O=C1O[C@H](CO)[C@@H](O)[C@H](O)[C@H]1O,99
CCc1cc(C(N)=S)ccn1,101
CC1(C)O[C@@H]2C[C@H]3[C@@H]4C[C@H](F)C5=CC(=O)C=C[C@]5(C)[C@H]4[C@@H](O)C[C@]3(C)[C@]2(C(=O)CO)O1,104
CC(=O)OCC(=O)[C@@]1(O)CC[C@H]2[C@@H]3CCC4=CC(=O)C=C[C@]4(C)[C@@]3(F)[C@@H](O)C[C@@]21C,99.3
COc1ccccc1OCC(O)CO (centres unmarked),77

# Excerpt of the above (study 1):
target,remaining binding
"PIK3CA (Homo sapiens, UniProt P42336, E545K)",80%
"CSNK1E (Homo sapiens, UniProt P49674)",95%
